Measured values pooled from the literature.
Numbered parts are unrelated; each lists some results of a single study. “And” joins repeats or separate records; there may be more than shown.
Sequence of UniProt O75676 (whole entry, looked up): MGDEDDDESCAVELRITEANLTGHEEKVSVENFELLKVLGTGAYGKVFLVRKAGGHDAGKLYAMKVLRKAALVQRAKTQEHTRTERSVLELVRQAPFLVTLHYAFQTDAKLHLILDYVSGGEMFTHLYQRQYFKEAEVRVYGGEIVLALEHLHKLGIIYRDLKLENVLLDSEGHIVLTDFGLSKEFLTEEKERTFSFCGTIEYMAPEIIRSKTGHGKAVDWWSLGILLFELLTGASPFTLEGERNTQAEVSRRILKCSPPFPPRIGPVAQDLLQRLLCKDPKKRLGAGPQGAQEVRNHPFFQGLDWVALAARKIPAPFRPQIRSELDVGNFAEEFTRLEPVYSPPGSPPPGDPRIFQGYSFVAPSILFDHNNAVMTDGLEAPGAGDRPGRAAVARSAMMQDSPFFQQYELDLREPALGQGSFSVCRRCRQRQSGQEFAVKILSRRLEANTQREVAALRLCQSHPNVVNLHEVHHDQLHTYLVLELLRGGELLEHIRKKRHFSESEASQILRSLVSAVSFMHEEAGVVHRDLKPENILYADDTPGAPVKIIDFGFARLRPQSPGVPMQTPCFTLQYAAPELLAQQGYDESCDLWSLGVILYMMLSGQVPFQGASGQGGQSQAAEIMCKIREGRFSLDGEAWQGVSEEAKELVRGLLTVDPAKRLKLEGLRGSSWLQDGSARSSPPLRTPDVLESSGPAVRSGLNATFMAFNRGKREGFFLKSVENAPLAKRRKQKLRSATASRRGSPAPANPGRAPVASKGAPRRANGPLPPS
Sequence of UniProt Q9Y5S2 (whole entry, looked up): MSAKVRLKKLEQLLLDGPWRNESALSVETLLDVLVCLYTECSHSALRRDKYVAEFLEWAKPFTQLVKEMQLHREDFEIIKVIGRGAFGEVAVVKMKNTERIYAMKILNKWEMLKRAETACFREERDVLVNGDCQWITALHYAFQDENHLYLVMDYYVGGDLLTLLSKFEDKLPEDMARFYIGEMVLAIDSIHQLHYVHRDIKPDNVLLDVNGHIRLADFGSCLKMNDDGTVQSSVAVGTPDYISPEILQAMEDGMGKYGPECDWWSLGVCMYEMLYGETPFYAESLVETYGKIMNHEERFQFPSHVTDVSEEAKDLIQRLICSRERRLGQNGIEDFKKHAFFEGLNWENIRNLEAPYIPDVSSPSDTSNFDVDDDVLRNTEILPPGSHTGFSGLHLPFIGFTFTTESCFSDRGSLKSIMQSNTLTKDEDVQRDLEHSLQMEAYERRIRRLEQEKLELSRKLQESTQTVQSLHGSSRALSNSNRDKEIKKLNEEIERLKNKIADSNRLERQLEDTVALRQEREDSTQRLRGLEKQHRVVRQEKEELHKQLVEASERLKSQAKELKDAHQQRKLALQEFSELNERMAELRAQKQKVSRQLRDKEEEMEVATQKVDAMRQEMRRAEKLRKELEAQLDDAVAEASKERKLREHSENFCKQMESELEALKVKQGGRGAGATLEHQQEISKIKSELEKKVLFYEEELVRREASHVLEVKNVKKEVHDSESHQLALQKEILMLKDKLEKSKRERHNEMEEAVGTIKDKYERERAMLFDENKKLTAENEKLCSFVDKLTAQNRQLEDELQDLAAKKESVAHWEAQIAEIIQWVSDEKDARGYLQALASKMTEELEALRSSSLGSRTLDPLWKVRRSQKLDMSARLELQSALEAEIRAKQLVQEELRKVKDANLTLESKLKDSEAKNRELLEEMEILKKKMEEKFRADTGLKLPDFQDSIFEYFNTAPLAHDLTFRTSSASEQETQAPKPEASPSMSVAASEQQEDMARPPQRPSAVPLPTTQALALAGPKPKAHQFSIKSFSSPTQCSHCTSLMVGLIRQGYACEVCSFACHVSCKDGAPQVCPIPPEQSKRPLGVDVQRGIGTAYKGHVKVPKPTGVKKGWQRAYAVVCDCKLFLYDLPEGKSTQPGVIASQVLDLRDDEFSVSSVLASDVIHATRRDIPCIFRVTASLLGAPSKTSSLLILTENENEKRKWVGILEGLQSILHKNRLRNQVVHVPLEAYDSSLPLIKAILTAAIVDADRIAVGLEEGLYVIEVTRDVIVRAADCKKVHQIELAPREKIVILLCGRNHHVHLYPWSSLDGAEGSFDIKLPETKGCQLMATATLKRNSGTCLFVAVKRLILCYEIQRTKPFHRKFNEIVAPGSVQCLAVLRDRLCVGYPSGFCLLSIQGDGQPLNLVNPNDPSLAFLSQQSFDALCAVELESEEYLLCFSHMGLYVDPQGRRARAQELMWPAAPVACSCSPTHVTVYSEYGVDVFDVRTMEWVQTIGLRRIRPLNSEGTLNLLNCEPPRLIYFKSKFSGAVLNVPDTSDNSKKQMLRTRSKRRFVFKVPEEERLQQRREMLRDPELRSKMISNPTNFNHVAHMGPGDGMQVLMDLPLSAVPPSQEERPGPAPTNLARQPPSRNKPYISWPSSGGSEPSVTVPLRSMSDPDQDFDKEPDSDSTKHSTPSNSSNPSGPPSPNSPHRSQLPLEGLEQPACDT
Sequence of UniProt O75914 (whole entry, looked up): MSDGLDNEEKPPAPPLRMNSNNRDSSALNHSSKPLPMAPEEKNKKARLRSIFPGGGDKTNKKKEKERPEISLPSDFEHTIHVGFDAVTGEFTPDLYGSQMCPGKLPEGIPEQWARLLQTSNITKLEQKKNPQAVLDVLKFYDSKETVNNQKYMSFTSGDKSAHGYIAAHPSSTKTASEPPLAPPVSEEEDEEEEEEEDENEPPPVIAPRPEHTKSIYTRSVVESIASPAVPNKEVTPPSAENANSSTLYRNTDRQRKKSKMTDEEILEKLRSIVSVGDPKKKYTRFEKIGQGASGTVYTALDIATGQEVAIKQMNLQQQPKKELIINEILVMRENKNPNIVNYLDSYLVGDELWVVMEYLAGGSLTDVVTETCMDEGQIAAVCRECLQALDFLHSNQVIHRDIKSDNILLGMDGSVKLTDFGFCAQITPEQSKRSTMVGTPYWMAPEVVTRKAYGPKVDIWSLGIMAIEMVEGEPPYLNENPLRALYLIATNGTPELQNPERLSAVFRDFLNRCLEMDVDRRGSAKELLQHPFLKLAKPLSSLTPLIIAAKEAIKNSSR
Sequence of UniProt Q8WXR4 (whole entry, looked up): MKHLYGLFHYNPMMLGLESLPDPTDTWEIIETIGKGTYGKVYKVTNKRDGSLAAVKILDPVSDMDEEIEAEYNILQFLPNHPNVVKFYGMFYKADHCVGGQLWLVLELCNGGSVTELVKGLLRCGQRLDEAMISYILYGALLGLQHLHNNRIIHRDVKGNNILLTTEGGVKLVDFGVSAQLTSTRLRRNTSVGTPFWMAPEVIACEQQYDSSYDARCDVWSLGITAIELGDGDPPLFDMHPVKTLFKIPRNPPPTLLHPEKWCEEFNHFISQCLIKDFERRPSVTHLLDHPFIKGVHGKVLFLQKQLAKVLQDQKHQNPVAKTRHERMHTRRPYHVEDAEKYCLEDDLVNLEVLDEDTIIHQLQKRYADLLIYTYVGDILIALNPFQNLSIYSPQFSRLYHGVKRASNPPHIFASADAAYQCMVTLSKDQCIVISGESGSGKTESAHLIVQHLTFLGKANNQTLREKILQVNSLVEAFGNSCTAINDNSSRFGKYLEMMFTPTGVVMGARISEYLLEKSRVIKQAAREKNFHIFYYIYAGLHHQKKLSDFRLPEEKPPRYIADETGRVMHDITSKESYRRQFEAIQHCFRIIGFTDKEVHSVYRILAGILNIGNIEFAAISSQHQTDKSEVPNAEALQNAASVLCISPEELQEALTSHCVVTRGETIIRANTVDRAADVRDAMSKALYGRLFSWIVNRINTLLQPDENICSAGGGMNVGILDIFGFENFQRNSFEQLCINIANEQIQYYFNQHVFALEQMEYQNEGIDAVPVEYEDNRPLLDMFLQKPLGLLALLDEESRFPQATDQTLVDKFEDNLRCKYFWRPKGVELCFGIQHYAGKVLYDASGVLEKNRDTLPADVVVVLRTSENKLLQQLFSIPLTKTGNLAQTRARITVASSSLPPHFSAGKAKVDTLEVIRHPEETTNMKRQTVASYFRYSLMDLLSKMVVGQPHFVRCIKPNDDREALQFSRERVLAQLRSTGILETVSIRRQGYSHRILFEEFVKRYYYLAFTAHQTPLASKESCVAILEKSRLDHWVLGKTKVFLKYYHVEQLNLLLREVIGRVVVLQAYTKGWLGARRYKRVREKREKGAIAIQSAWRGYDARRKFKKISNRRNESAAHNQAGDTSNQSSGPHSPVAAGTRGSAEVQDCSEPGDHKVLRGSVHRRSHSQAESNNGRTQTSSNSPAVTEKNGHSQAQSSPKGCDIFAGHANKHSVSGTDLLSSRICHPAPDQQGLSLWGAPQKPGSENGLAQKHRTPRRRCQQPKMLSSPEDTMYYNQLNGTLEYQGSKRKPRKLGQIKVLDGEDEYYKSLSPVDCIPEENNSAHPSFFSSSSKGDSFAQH
Sequence of UniProt P32298 (whole entry, looked up): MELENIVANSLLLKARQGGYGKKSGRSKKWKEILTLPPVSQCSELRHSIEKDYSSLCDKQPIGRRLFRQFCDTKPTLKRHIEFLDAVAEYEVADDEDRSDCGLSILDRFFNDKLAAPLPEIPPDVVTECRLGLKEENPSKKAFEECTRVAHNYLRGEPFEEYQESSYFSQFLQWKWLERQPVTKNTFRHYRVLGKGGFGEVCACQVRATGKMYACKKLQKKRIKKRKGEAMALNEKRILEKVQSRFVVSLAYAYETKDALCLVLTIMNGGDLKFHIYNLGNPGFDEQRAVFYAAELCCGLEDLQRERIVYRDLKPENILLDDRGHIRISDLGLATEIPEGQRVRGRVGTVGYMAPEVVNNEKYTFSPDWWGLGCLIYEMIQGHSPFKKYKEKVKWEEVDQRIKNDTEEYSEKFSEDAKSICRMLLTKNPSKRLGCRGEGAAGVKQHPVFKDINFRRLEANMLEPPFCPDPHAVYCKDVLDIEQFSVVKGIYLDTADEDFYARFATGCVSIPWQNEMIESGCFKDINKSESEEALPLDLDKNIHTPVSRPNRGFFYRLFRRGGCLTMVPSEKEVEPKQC

Block 1
Compound: O=C1C(Cl)=C(N2C(=O)CCC2=O)C(=O)c2ccccc21
Effect on: enzyme activity
Action: inhibitor
Concentration: 0.5 µM
Relative to: control
target | remaining activity [%]
DDR2 (Homo sapiens, UniProt Q16832) | 95.8
TXK (Homo sapiens, UniProt P42681) | 95.5
ROCK1 (Homo sapiens, UniProt Q13464) | 106
RPS6KA4 (Homo sapiens, UniProt O75676) | 115
MARK2 (Homo sapiens, UniProt Q7KZI7) | 79.4
GRK4 (Homo sapiens, UniProt P32298) | 97.6
MINK1 (Homo sapiens, UniProt Q8N4C8) | 95.6
Myosin-IIIb (MYO3B, Homo sapiens, UniProt Q8WXR4) | 112
KDR (Homo sapiens, UniProt P35968) | 88.3
PAK3 (Homo sapiens, UniProt O75914) | 104
DCLK2 (Homo sapiens, UniProt Q8N568) | 100
CDC42BPB (Homo sapiens, UniProt Q9Y5S2) | 98.6
PLK3 (Homo sapiens, UniProt Q9H4B4) | 96.6

Block 2
Cell line: mouse MPNST tumor cells
Technique: high-content nuclear imaging
Refers to: cell number
Concentration: 10 µM
Time: 12 h
Notes: mean of 2 replicates
Relative to: plate mean
Reading: higher = more cells
Compound | nuclei count
CS(=O)(=O)N(Cc1ccco1)C[C@@H](O)Cn1c2ccccc2c2ccccc21 | 2.08 z-score
O=C1CC2(CCCC2)CC(=O)N1CCCCN1CCN(c2ncccn2)CC1 | -0.281 z-score and 0.317 z-score
N=C(N)NCc1cccc(I)c1 | 1.48 z-score
CC(C)(O)c1ccccc1CC[C@@H](SCC1(CC(=O)O)CC1)c1cccc(/C=C/c2ccc3ccc(Cl)cc3n2)c1 | 0.604 z-score and 0.463 z-score
O=C(O)c1ccccc1C(=O)Nc1ccc(-c2ccccc2)cc1 | 1.9 z-score

Block 3
Cell line: sample D normal colon organoid
Technique: CellTiter-Glo
Concentration: 0.1 µM
Notes: mean of replicates
Relative to: DMSO
SMILES | viability [%]
O=S(=O)(NC1CCC(c2cc(F)ccc2F)(S(=O)(=O)c2ccc(Cl)cc2)CC1)C(F)(F)F (centres unmarked) | 101
COc1cccc(CNC(=O)c2nc3scc(COCc4ccc(C(=O)O)cc4)c3c(=O)[nH]2)c1 | 85.9
CCCCN(CCCC)C(=O)CN1C[C@H](c2cc(OC)c3c(c2)OCO3)[C@@H](C(=O)O)[C@@H]1CC(C)(C)CCC | 105
Cc1cc(C)c(-n2ccn3nc(-c4cccnc4)cc23)cc1NC(=O)c1cc(C#N)cc(S(F)(F)(F)(F)F)c1 | 92.5
CNCc1ccccc1-c1csc([C@H](C)Nc2nc(C)nc3cc(OC)c(OC)cc23)c1 | 108
C[C@@H]1CN(c2cc(-c3n[nH]c4ccc(OC5(C)CC5)cc34)ncn2)C[C@H](C)O1 | 97.8
CCCOc1ccc([C@@H]2[C@@H](C(=O)O)[C@H](c3ccc4c(c3)OCO4)CN2CC(=O)Nc2c(CC)cccc2CC)cc1 | 92.8
CCS(=O)(=O)c1cc2cc(C[C@@](O)(CC(C)(C)c3ccc(F)cc3C(N)=O)C(F)(F)F)[nH]c2cn1 | 142
Nc1cnc(N2CCc3cc(S(=O)(=O)Nc4c(F)cc(Cl)cc4F)cc(N4CCCC4=O)c32)nc1 | 151
O=C(NCc1ncc(C(F)(F)F)cc1Cl)c1ccc2c(c1)C1(CCS(=O)(=O)CC1)[C@H](C1CC1)N2S(=O)(=O)c1ccc(F)cc1 | 109
CN(C)C(=O)Cn1cc(-c2nc([C@@](C)(c3ccc(-c4cnc(N)nc4)cc3)C3CC3)no2)cn1 | 84
Cc1cc(Nc2nccc(C)n2)cc(-c2cnc([C@@]3(O)CC[C@H](C(=O)O)C(C)(C)C3)s2)c1 | 102
N#Cc1ccc(Nc2ccc3[nH]c(=O)[nH]c3c2)c(Cl)c1 | 101

Single results of other studies
SMILES | assay | test system | setting | scale | measurement | result
CC(=O)N[C@@H](Cc1c[nH]c2ccccc12)C(=O)N[C@@H](CCC(=O)C=[N+]=[N-])C(=O)OC(C)C | histopathology, scale 0-6 | mouse C57BL/6 CES1-/-, GI tissue | intravenous, 2.6 mg/kg | direction not given | GI histopathology sum score | 5 and 4
